Assay results collected from several papers.
Compare with care: the assays were run in different laboratories.
Organism: human immunodeficiency virus 1

| Compound | test | system | setting | how to read | endpoint | value |
| --- | --- | --- | --- | --- | --- | --- |
| CC(C)(C)OC(=O)N1CCC(C(=O)N[C@@H](Cc2ccc3ccccc3c2)C(=O)O)(c2ccc3ccccc3c2)CC1 | viral replication, full replication cycle | NL4-3 wild type | – | – | IC50 | ~58 µM |
| C=C(C)[C@@H]1CC[C@]2(CCCNCCCN3CCCC3)CC[C@]3(C)[C@H](CC[C@@H]4[C@@]5(C)CC[C@H](OC(=O)CC(C)(C)C(=O)O)C(C)(C)[C@@H]5CC[C@]43C)[C@@H]12 | western blot | HEK293T transfected, subtype B NL4-3, virion lysates | 100 nM | reference: total CA | CA-SP1 accumulation | 25 to 30% |
| CCOC(=O)C(C(=O)OCC)=C(c1ccccc1)c1ccccc1 | p24 expression, single-cycle replication | HeLa, NL4-3 | 10 µM | – | inhibition | 55.2% |
| O=C(O)[C@H](Cc1ccc2ccccc2c1)NC(=O)C1(c2ccc3ccccc3c2)CCN(S(=O)(=O)c2ccc([N+](=O)[O-])cc2)CC1 | – | NL4-3 wild type | – | reference: CC50 over IC50 | selectivity ratio | 3.6 |
| COc1ccc(-c2cc(=O)c3c(O)c(OC)c(O)c(OC)c3o2)cc1O | viral transcription, luciferase reporter | MT2 transfected with pNL4.3-Luc | 48 h | – | IC50 | > 20 µM |
| Cc1cccc2c(=O)c(C(=O)NNC(=O)c3ccc(F)cc3)c[nH]c12 | viral replication, refers to: p24 | HeLa, NL4-3 | 72 h | – | EC50 | 75 µM |
| COc1cc(O)cc(O)c1C(=O)/C=C/c1ccccc1 | viral transcription, luciferase reporter | MT2 transfected with pNL4.3-Luc | 48 h | – | IC50 | > 100 µM |
| C=C(C)[C@@H]1CC[C@]2(CCCNCCN3CCN(S(C)(=O)=O)CC3)CC[C@]3(C)[C@H](CC[C@@H]4[C@@]5(C)CC[C@H](OC(=O)CC(C)(C)C(=O)O)C(C)(C)[C@@H]5CC[C@]43C)[C@@H]12 | western blot | HEK293T transfected, subtype B NL4-3, virion lysates | 100 nM | reference: total CA | CA-SP1 accumulation | 50 to 55% |

For quick reference, copied from above:
| Compound | test | system | setting | how to read | endpoint | value |
| --- | --- | --- | --- | --- | --- | --- |
| CC(C)(C)OC(=O)N1CCC(C(=O)N[C@@H](Cc2ccc3ccccc3c2)C(=O)O)(c2ccc3ccccc3c2)CC1 | viral replication, full replication cycle | NL4-3 wild type | – | – | IC50 | ~58 µM |
